Results pooled from the literature.
Each line is one published result; not all experiments were run side by side. ± gives the spread as reported.

O=c1cc(-c2ccc(O)c(O)c2)oc2cc(O)cc(O)c12 — faecal recovery (Sprague-Dawley rat, male, lean, faeces; oral, 100 mg/kg neohesperidin, 48 h; baseline: dose): 0.027 ± 0.02%
CC(C)C[C@H](NC(=O)[C@H](CCCCN)NC(=O)OCC1c2ccccc2-c2ccccc21)C(=O)N[C@H](C(=O)N[C@@H](Cc1ccccc1)C(=O)N[C@@H](Cc1ccccc1)C(=O)N[C@@H](CCCCN)C(=O)NCC(=O)N[C@@H](Cc1ccccc1)C(=O)N[C@@H](C)C(=O)N[C@@H](Cc1c[nH]c2ccccc12)C(=O)N[C@@H](CC(N)=O)C(=O)N[C@H](C(=O)N[C@H]1CSSC[C@@H](C(=O)N[C@@H](Cc2c[nH]cn2)C(=O)N[C@@H](CCCNC(=N)N)C(=O)N[C@@H](CCCNC(=N)N)C(=O)N[C@@H](C)C(=O)N[C@@H](CC(N)=O)C(N)=O)NC(=O)[C@H](C(C)C)NC(=O)[C@H](CCCNC(=N)N)NC(=O)[C@H](C(C)C)NC(=O)CNC(=O)[C@H](CC(N)=O)NC(=O)[C@H](CCCNC(=N)N)NC(=O)[C@H](Cc2ccc(O)cc2)NC(=O)[C@H](C(C)C)NC1=O)C(C)C)C(C)C — AST/ALT ratio (ICR mice, serum; intraperitoneal, 10 mg/kg, day 5; baseline: AST over ALT): 0.6 ± 0.03
CC(=O)c1c(C)c2cnc(Nc3ccc(C4CCN(CCS(C)(=O)=O)CC4)cn3)nc2n(C2CCCC2)c1=O — CL (human, plasma; oral, 25 mg once daily, day 1, single dose): 1110 mL/min
Oc1c(Cl)cc2c(c1Cl)Oc1cc(Cl)c(Cl)cc1O2 — final permeate concentration (ultrafiltration; cow milk whey; 20 nM nominal in whole milk): 1.85 nM
CNC(=O)c1cc(Cl)c(OC(C)(C)C(=O)O)cc1OC[C@@H](O)CN1CCC2(CC1)Cc1cc(Cl)ccc1O2 — absorption rate constant (human; oral): 0.3 h⁻¹
O=C(O)CCCOc1ccc(F)cc1-c1cc(-c2ccccc2C(F)(F)F)n(-c2ccccc2)n1 — serum enzyme activity (measured: ALP; Crl:CD(SD) rats, female, serum; iv, 25 µg/kg, 1 day): 151 ± 29.8 U/L
CN1CC[C@@H](c2c(O)cc(O)c3c(=O)cc(-c4ccc(C(F)(F)F)cc4Cl)oc23)[C@@H]1CO — patients with adverse event (measured: Leukopenia; relapsed AML; oral, 150 mg, grade 3-4, intermittent dosing): 0%
COc1ccc(Nc2cc(C(=O)NCCCN3CCN(c4ccc(OC)cc4)CC3)c3ccccc3n2)cc1 — maximum response (Vero-E6; CellTiter-Glo ATP; 72 h, second round 5-point; baseline: DMSO 0%, hyamine -100%, more negative, more toxic): -21.2%
O=c1nc(NO)ccn1[C@@H]1O[C@H](CO)[C@@H](O)[C@H]1O — bench-top stability (rat maternal placenta dialysate; 25 ng/mL, 6 h, room temperature, low concentration, with: molnupiravir 5 ng/mL): 106 ± 3.61%
CC[C@H](C)[C@@H]1NC(=O)[C@@H]2CSSC[C@H](NC(=O)[C@H](CCCNC(=N)N)NC(=O)[C@@H]3CSSC[C@H](NC1=O)C(=O)N[C@@H]([C@@H](C)O)C(=O)N[C@@H](CCCNC(=N)N)C(=O)NCC(=O)N[C@@H](Cc1ccccc1)C(=O)N3)C(=O)N[C@@H](CC(C)C)C(=O)N[C@H]1CSSC[C@H](NC(=O)[C@H](C(C)C)NC(=O)CNC(=O)[C@H](CCCNC(=N)N)NC(=O)[C@H](CCCNC(=N)N)NC1=O)C(=O)N[C@@H](CCCNC(=N)N)C(=O)N2 — alveolar macrophage aggregation score (Sprague-Dawley rats, male, lung; 5 mg/kg; direction not given): 1 to 2
O=c1oc(-c2cccc([N+](=O)[O-])c2)ns1 — hydrolysis half-life (RPMI medium; concentration not given, 37 °C, spontaneous hydrolysis): 20.4 min
COc1cc2c(Oc3ccc4[nH]c(C)cc4c3F)ccnc2cc1OCC1(N)CC1 — grade 3 blurred vision (paediatric recurrent refractory sarcoma; 12 mg): 0%
CCc1ccc(CC/C=C/c2ccc3c(c2)C(=O)CC3)cc1 — TC (Sprague-Dawley rat, male; oral, 450 mg/kg/day, 14 days): 1.83 mM
CCN(CCO)CCCC(C)Nc1ccnc2cc(Cl)ccc12 (stereo not shown) — patients with adverse event (measured: Hypokalemia grade 1; newly diagnosed glioblastoma patients; oral, 400 mg/dose, with radiotherapy and temozolomide): 14%
CC1(C)[C@H](C(=O)OCc2cccc(Oc3ccccc3)c2)[C@@H]1C=C(Cl)Cl — hepatic intrinsic clearance (IVIVE scaling; human adult): 668 L/h/kg liver
Cc1cc(C)nc(Nc2ncc(C(=O)NCCc3c(C)[nH]c4ccccc34)cn2)c1 — oral bioavailability (Sprague-Dawley rat): 12%
CO[C@H]1C[C@@H]2CC[C@@H](C)[C@@](O)(O2)C(=O)C(=O)N2CCCC[C@H]2C(=O)O[C@H]([C@H](C)C[C@@H]2CC[C@@H](OC(=O)NCCOCCOCCOCCOCCOCCOCCOCCOCCC(=O)N3CCc4cc(Cn5nc(-c6ccc7oc(N)nc7c6)c6c(N)ncnc65)ccc4C3)[C@H](OC)C2)C[C@@H](O)[C@H](C)/C=C(\C)[C@@H](O)[C@@H](OC)C(=O)[C@H](C)C[C@H](C)/C=C/C=C/C=C/1C — incidence of any TEAE (patients with advanced solid tumours; intravenous, 1.6 mg/3 mg weekly, any grade): 100%
Oc1ccc(CCc2cc(O)cc(O)c2)cc1 — CSF concentration (human, cerebrospinal fluid; dose not given, mean): not detected
C[C@]1(CO)Cc2ncn(-c3ccc(C#N)c(Cl)c3)c2C(=O)O1 — tmax at steady state (human, plasma; 40 mg once daily, fasted): 90 min
COc1ccc2nc3cc(Cl)ccc3c(Nc3cc(CN4CCCC4)c(O)c(CN4CCCC4)c3)c2n1 — basophils (mouse, blood; oral, 57 mg/kg, tolerability, mean): 0.53%
CCCCN(CCCNC(=O)c1cc(Nc2ccc(OC)c(OC)c2)nc2ccccc12)Cc1ccccc1 — maximum response (Vero-E6; CellTiter-Glo ATP; 72 h, second round 5-point; baseline: DMSO 0%, hyamine -100%, more negative, more toxic): -5.24%
O=C(Nc1ccccc1)C1CCN(C(=O)Oc2cccnc2)CC1 — change in external perception score (psychotropic effects VAS; healthy women; 20 mg; baseline: pre-dose baseline, direction not given): 0
COc1ncnn2ccc(-c3cnc4nc(C)n(Cc5nnc([C@@H](C)F)o5)c4c3)c12 — incidence of Hyponatremia (human patients; oral, dose not given, grade 1 adverse drug reaction): 7.1%
CN1CCN(S(=O)(=O)c2cc([N+](=O)[O-])ccc2N(CCOS(C)(=O)=O)CCOS(C)(=O)=O)CC1 — concentration (NSG mice female, plasma; intraperitoneal, 25 mg/kg, 1 h): 500 nM
Oc1ccc(CSCc2ccc(O)cc2)cc1 — body weight (ICR mice male; oral, 1500 mg/kg, day 1 before dosing, acute toxicity): 30.5 ± 0.98 g
O=[N+]([O-])c1cc2c3c(ccc2c2ccccc12)[C@H](O)[C@@H](O)C=C3 — tumour incidence (female Sprague-Dawley rat, mammary gland; intramammary, dose not given, 32 wk, palpable mammary tumours at necropsy): 38%
CCS(=O)(=O)Nc1ccc(Oc2ccc(F)cc2F)c(-c2cn(C)c(=O)c3[nH]ccc23)c1 — treatment-emergent adverse events (platelet count decreased leading to discontinuation; human, relapsed/refractory AML; oral, dose not given): 0%
COc1ncccc1-c1cnn2ccc(N3CCN(C(=O)OC(C)C)CC3)nc12 — drug concentration (mouse nerve ligation model, plasma; oral, 10 mg/kg, 180 min after last dose, repeat dosing day 1): 1600 nM
